Assay results from different studies.
Protocols differ between the studies behind these lines. Values joined by “and” are separate records of one study, mostly repeats; a detail may differ. Numbers after ± are the reported error.

SMILES | test | test system | conditions | half-life
Cc1cccc(CNC(=O)c2cn(CCNC(=O)c3ccccc3Sc3c([N+](=O)[O-])ncn3C)c3cc4c(cc3c2=O)OC(F)(F)O4)n1 |  | Sprague-Dawley rat, male, whole blood | intravenous, 5 mg/kg of parent compound | 0.6 ± 0.18 h
CCCCCOC(=O)Nc1nc(=O)n([C@@H]2O[C@H](C)[C@@H](O)[C@H]2O)cc1F |  | Sprague-Dawley rat, plasma | oral, 200 mg/kg, added: chitooligosaccharide 20 min before glucosamine 250 mg/kg | 0.324 ± 0.0643 h
COC(=O)C1=CO[C@@H](O[C@@H]2O[C@H](CO)[C@@H](O)[C@H](O)[C@H]2O)[C@@H]2C(CO)=CC[C@H]12 |  | rat, plasma | oral, 500 mg/kg Eu extract, dosed as Eu extract | 1.37 ± 0.33 h
Cc1cc(NC(=O)c2cccc(NC(=O)/C=C/CN(C)C)c2)ccc1Nc1nccc(-c2cccnc2)n1 |  | rat Wistar male, primary hepatocytes | 1 µM | 3.15 h
CC[C@@](N)(c1cnc(C(F)(F)F)c(Cl)c1)c1c2ccn(C3CC3)c(=O)c2nn1C |  | Sprague-Dawley rat, male | intravenous, 1 mg/kg | 13 ± 2 h
Oc1ccc(/C=C/c2cc(O)cc(O)c2)cc1 |  | male Wistar rats, plasma | oral, 10 mg/kg | 6.7 ± 1.2 h
OCC1=C[C@@H](O)[C@@H]2C=CO[C@@H](O[C@@H]3O[C@H](CO)[C@@H](O)[C@H](O)[C@H]3O)[C@H]12 |  | rat, plasma | oral, 500 mg/kg Eu + 217 mg/kg Pc extract, dosed as combined Eu and Pc extracts | 1.47 ± 0.79 h
Cc1nc2cccc(OCC(C)(C)C(=O)NC(C)C)c2c(N)c1C(=O)O |  | Sprague-Dawley rat, male, plasma | oral, 30 mg/kg | 1.52 h
CC(C)c1nc(N(C)S(C)(=O)=O)nc(-c2ccc(F)cc2)c1/C=C/[C@@H](O)C[C@@H](O)CC(=O)O |  | Wistar albino rat, both sexes, plasma | oral, 20 mg/kg | 8.4 h and 24.6 h and 41.8 h and 7.6 h and 15.5 h and 5.8 h and 10.5 h
Cc1nn(C2CC2)c(=O)c2nn(C)c(Cc3ccc(C(F)(F)F)c(C#N)c3)c12 |  | Sprague-Dawley rat, male | intravenous, 1 mg/kg | 14 ± 1.4 h
C1=C/COCc2cc(ccc2OCCN2CCCC2)Nc2nccc(n2)-c2cccc(c2)COC/1 | LC-MS/MS | Sprague-Dawley rat, male, plasma | oral, 36 mg/kg, added: isavuconazole 20 mg/kg oral | 14.4 ± 12.8 h
Cc1nc(-c2cnc(NC(C)C)n(C)c2=O)ccc1Oc1ccnc(-c2cnn(C)c2)c1 |  | Sprague-Dawley rat, male, plasma | intravenous, 1 mg/kg, crossover study | 14.2 h
Nc1nc(O)c2ncn(COC(CO)CO)c2n1 |  | Sprague-Dawley rat, male | oral, 10 mg/kg | 1.8 ± 0.317 h
Cn1cnc([N+](=O)[O-])c1Sc1ccccc1C(=O)NCCn1ccc(=O)c2cc3c(cc21)OCO3 | LC-UV/MS | Sprague-Dawley rat, whole blood | 10 µM, 37 °C | 0.312 h
CCn1ccc2c([C@@](O)(CC)c3ccc(C(F)(F)F)nc3)n(C)nc2c1=O |  | Sprague-Dawley rat, male | intravenous, 1 mg/kg | 2.5 ± 0.77 h
CCc1cc(C(=O)NC)c2nccc(N3CCc4c(cc(Cn5ccnc5)cc4-c4cn(C)nc4C(F)(F)F)C3=O)c2c1 |  | Sprague Dawley rat, male, plasma | oral, 100 mg/kg once daily, 7 days, toxicokinetic satellite group | 2.1 h
Cc1ccc(S(=O)(=O)n2cc3c4c2C(=O)C(NCc2ccc(Cl)cc2)=CC4=NCC3)cc1 |  | Sprague-Dawley rat, plasma | intravenous, 5 mg/kg, two-compartment model | 1.79 h and 0.82 h and 1.33 h
CC(C)[C@@H](CN1CC[C@@](C)(c2cccc(O)c2)[C@@H](C)C1)NC(=O)[C@H]1Cc2ccc(O)cc2CN1 |  | Sprague-Dawley rat, plasma | intraperitoneal, 3 mg/kg | 23.4 h
CSc1ccccc1C(=O)NCCn1cc(C(=O)NCc2cccc(C)n2)c(=O)c2cc3c(cc21)OC(F)(F)O3 |  | Sprague-Dawley rat, male, plasma | intravenous, 5 mg/kg of parent compound | 0.44 ± 0.09 h
O=c1oc2c(O)c(O)cc3c(=O)oc4c(O)c(O)cc1c4c23 |  | rat, plasma | oral, 500 mg/kg extract, extract | 2.51 ± 0.27 h
N=C(N)NCCNC(=O)C1(Nc2ccccc2)CCN(Cc2ccccc2)CC1 |  | Sprague-Dawley rats, both sexes, plasma | intravenous, 2.5 mg/kg, mean of both sexes | 0.9 h
CC(C)C[C@H](NC(=O)[C@H](CC(C)C)NC(=O)CNC(=O)[C@H](C)NC(=O)[C@H](C)NC(=O)[C@H](CCCNC(=N)N)NC(=O)CNC(=O)CCCCNC(=O)CCCCNC(=O)CCCCNC(=O)[C@H](CCCCN)NC(=O)[C@H](Cc1ccc(O)cc1)NC(=O)CCc1c[nH]c2ccccc12)C(N)=O |  | Sprague-Dawley rat, male, plasma | 1 µM | 0.652 ± 0.075 h
CCn1ccc2c([C@](O)(c3cnc(C(F)(F)F)c(Cl)c3)C3CC3)n(C)nc2c1=O |  | Sprague-Dawley rat, male | intravenous, 1 mg/kg | 2.8 ± 0.28 h
NCc1cc2c(cc1F)C(=O)N(C1CCC(=O)NC1=O)C2 (centres unmarked) |  | male Sprague-Dawley rat, whole blood |  | > 3 h
Cc1cccc(CNC(=O)c2cn(CCNC(=O)c3ccccc3S)c3cc4c(cc3c2=O)OC(F)(F)O4)n1 |  | Sprague-Dawley rat, male, plasma | intravenous, 5 mg/kg of parent compound | ~1 h
O=C(O)C1=CO[C@@H](O[C@@H]2O[C@H](CO)[C@@H](O)[C@H](O)[C@H]2O)[C@@H]2C(CO)=CC[C@H]12 |  | rat, plasma | oral, 500 mg/kg Eu extract, dosed as Eu extract | 2.27 ± 1.14 h

A few entries again:
SMILES | test | test system | conditions | half-life
Cc1cccc(CNC(=O)c2cn(CCNC(=O)c3ccccc3Sc3c([N+](=O)[O-])ncn3C)c3cc4c(cc3c2=O)OC(F)(F)O4)n1 |  | Sprague-Dawley rat, male, whole blood | intravenous, 5 mg/kg of parent compound | 0.6 ± 0.18 h
CCCCCOC(=O)Nc1nc(=O)n([C@@H]2O[C@H](C)[C@@H](O)[C@H]2O)cc1F |  | Sprague-Dawley rat, plasma | oral, 200 mg/kg, added: chitooligosaccharide 20 min before glucosamine 250 mg/kg | 0.324 ± 0.0643 h
COC(=O)C1=CO[C@@H](O[C@@H]2O[C@H](CO)[C@@H](O)[C@H](O)[C@H]2O)[C@@H]2C(CO)=CC[C@H]12 |  | rat, plasma | oral, 500 mg/kg Eu extract, dosed as Eu extract | 1.37 ± 0.33 h
Cc1cc(NC(=O)c2cccc(NC(=O)/C=C/CN(C)C)c2)ccc1Nc1nccc(-c2cccnc2)n1 |  | rat Wistar male, primary hepatocytes | 1 µM | 3.15 h
